Assay results of several laboratories.
Protocols differ between the studies behind these lines. “And” joins repeats or separate records; there may be more than shown. ± gives the spread as reported.
TRPM8: Transient receptor potential cation channel subfamily M member 8 (TRPM8, Homo sapiens, UniProt Q7Z2W7)
FFAR4: Free fatty acid receptor 4 (FFAR4, Homo sapiens, UniProt Q5NUL3)
GAP50: Glideosome-associated protein 50 (GAP50, Plasmodium falciparum, UniProt Q8I2X3)
Maoa: Amine oxidase [flavin-containing] A (Maoa, Rattus norvegicus, UniProt P21396)
GUK1: GUK1 (Homo sapiens, UniProt Q16774)
NADH dehydrogenase [ubiquinone] iron-sulfur protein 7, mitochondrial/NADH dehydrogenase [ubiquinone] iron-sulfur protein 2, mitochondrial/MT-ND1: NADH dehydrogenase [ubiquinone] iron-sulfur protein 7, mitochondrial/NADH dehydrogenase [ubiquinone] iron-sulfur protein 2, mitochondrial/MT-ND1 (Homo sapiens, UniProt O75251+O75306+P03886)
PDE1C isoform PDE1C2: Dual specificity calcium/calmodulin-dependent 3',5'-cyclic nucleotide phosphodiesterase 1C, isoform PDE1C2 (PDE1C, Homo sapiens, UniProt Q14123)
Kir3.1/Kir3.2: Kir3.1/Kir3.2 (Homo sapiens, UniProt P48051+P48549)
CXCR4: C-X-C chemokine receptor type 4 (CXCR4, Homo sapiens, UniProt P61073)

OC[C@H]1OC(O)[C@H](O)[C@@H](O)[C@@H]1O (stereo partly shown)  enthalpy change (Hexokinase-3 (HK3, Homo sapiens, UniProt P52790); isothermal titration calorimetry; concentration not given, 25 °C): -20.3 ± 0.3 kcal/mol
NC(=O)c1cccc(-c2cc(Nc3ccc(OC(F)(F)F)cc3)ncn2)c1  remaining activity (TRPM8; antagonist; HEK293; 5 µM; relative to: control): 99.1 ± 7.21%
CCCCCCCCNc1c[nH]c(=O)[nH]c1=O  inhibition (FFAR4; antagonist, β-arrestin recruitment; CHO cells; 10 µM, with: 4 µM TUG-891): 38 ± 4%
Cc1ccccc1C(=O)N1NC(=Nc2ccccc2)SC1(C)C  koff (GAP50; binding, surface plasmon resonance; 1:1 binding model): 0.000946 s⁻¹
NCc1ccc(Br)cc1  log Kd (Maoa; pKa-corrected): -6.1 M
[Cl-].[K+]  reaction velocity (GUK1; enzyme activity, NADH-coupled; 120 mM): -0.0149 µM/s and -0.0223 µM/s and -0.019 µM/s
NC(=O)NOCCCCCCCCCCCC[P+](c1ccccc1)(c1ccccc1)c1ccccc1.O=C([O-])C(F)(F)F  oxygen consumption rate (NADH dehydrogenase [ubiquinone] iron-sulfur protein 7, mitochondrial/NADH dehydrogenase [ubiquinone] iron-sulfur protein 2, mitochondrial/MT-ND1; complex I-dependent respiration, Seahorse XF96; HCT-116; 1.5 µM, 24 h; relative to: control): 60.2 ± 2.79%
Cc1cc2c(c(=O)[nH]1)C(=O)O/C2=C\c1cc(F)ccc1OCCN1CCOCC1  ligand efficiency (PDE1C isoform PDE1C2; enzyme activity, inhibitor; with: 3H-cGMP substrate): 0.35
C#CCN(CCCN1CCN(C2CCCCC2)CC1)CC(=O)Nc1ccc(C(=O)c2ccccc2)cc1  selectivity ratio (TMEM97 (Homo sapiens, UniProt Q5BJF2); radioligand binding; RT-4 cell membranes; relative to: sigma1 over sigma2 receptor): ~10 fold
O=c1cc(NCCc2ccccc2Cl)[nH]c(=O)[nH]1  inhibition (FFAR4; antagonist, β-arrestin recruitment; CHO cells; 10 µM): 9 ± 2%
O=C(Nc1ccccc1-c1nc2c(C(=O)O)cccc2o1)c1ccccc1  kon (GAP50; binding, surface plasmon resonance; 1:1 binding model): 234 M⁻¹ s⁻¹
O=C(COc1cc(Cl)ccc1Cl)Nc1cc(C2CC2)nn1CC(F)(F)F  Emax (Kir3.1/Kir3.2; thallium flux, activator; HEK293; relative to: standard compound): 52%
C[C@H](CCCOc1ccc(C(=O)O)cc1)[C@H]1CC[C@H]2[C@@H]3CC=C4C[C@@H](O)CC[C@]4(C)[C@H]3CC[C@]12C  efficacy (NR1H2 (Homo sapiens, UniProt P55055); reporter gene, GAL4-LBD transactivation; HepG2): 11.8 ± 1.6%
C[N+](C)(C)CC(=O)O  Ka (uncharacterized protein (Pelagibacter ubique, UniProt Q4FKZ8); binding, competition isothermal titration calorimetry; Candidatus Pelagibacter ubique; with: glycine 2.5 mM competitor): 5.54e+08 M⁻¹ and 4.71e+08 M⁻¹
O=C(NC1CCC1)c1ccc2nc(-c3cccc(NS(=O)(=O)NCCN4CCCCC4)c3)cn2c1  protein level (Protein ENL (MLLT1, Homo sapiens, UniProt Q03111); degrader, immunoblot, refers to: MLLT1; 10 µM, 8 h; relative to: DMSO control): 5%
C=CC(=O)N1CCN(c2nc(OC[C@@H]3CCCN3C)nc3c(F)c(-c4nc(N)cc(C)c4C(F)(F)F)c(Cl)cc23)[C@@H](C)C1  association rate constant (GTPase KRas, GDP-bound (KRAS, Homo sapiens, UniProt P01116, Q61R); binding, surface plasmon resonance): 154000 ± 5300 M⁻¹ s⁻¹
c1ccc(C(NCc2cccnc2)(c2ccccc2)c2ccccc2)cc1  activation delay (Potassium voltage-gated channel subfamily KQT member 1, with KCNE1 (KCNQ1, Homo sapiens, UniProt P51787); IKs; 300 pM, with KCNE1): 0.6 ± 0.16 s
O=C1NC(=O)C(c2cn(CCCO)c3ncccc23)=C1c1cnccn1  remaining activity (TRPM8; antagonist; HEK293; 5 µM; relative to: control): 106 ± 2.5%
CCOc1cc(-c2nncn2C)ccc1Nc1ncc2cc(C)nc(NCC(C)(C)C)c2n1  displacement (WNK2 (Homo sapiens, UniProt Q9Y3S1); binding, LanthaScreen binding; 1 µM): 23%
COc1ccc(Oc2ccc([C@@H](C)N(C)c3ncc4c(N)nc(N)nc4n3)cc2)cc1  koff (GAP50; binding, surface plasmon resonance; 1:1 binding model): 0.363 s⁻¹
Nc1ncnc2c1ncn2[C@@H]1O[C@H](COP(=O)(O)OP(=O)(O)O)[C@@H](O)[C@H]1O  ΔH (GUK1; ITC; molar ratio 1.11): -1.2 kcal/mol
NCCS(=O)(=O)O  normalised MST signal (SLC6A6 (Homo sapiens, UniProt P31641, S402A); binding, microscale thermophoresis; 7.81 µM, room temperature, with: 50 nM labelled protein; higher = more binding): 0.0169
O[C@@H](c1cc(C(F)(F)F)nc2c(C(F)(F)F)cccc12)[C@H]1CCCCN1  kon (GAP50; binding, surface plasmon resonance; 1:1 binding model): 11000 M⁻¹ s⁻¹
CC(C)n1cnc2c(Nc3cccc(Cl)c3)nc(NCCO)nc21  remaining activity (TRPM8; antagonist; HEK293; 5 µM; relative to: control): 98.7 ± 8.51%
O=C(COP(=O)(O)O)[C@@H](O)[C@H](O)[C@H](O)COP(=O)(O)O  thermal stability ratio (Cleavage and polyadenylation specificity factor subunit 2 (Homo sapiens, UniProt Q9P2I0); thermal proteome profiling, refers to: CPSF2; HepG2 cell lysate; concentration not given, 57 over 37 °C; relative to: compound over control): 0.543 and 0.895 and 0.318
NC(=O)NOCCCCCCCCCCCCCCCC[P+](c1ccccc1)(c1ccccc1)c1ccccc1.O=C([O-])C(F)(F)F  oxygen consumption rate (NADH dehydrogenase [ubiquinone] iron-sulfur protein 7, mitochondrial/NADH dehydrogenase [ubiquinone] iron-sulfur protein 2, mitochondrial/MT-ND1; complex I-dependent respiration, Seahorse XF96; HCT-116; 5 µM, 24 h; relative to: control): 9.68 ± 1.36%
O=C(ON1C(=O)CCC1=O)c1cc(C(F)(F)F)cc(C(F)(F)F)c1  Hill slope (CD209 antigen (CD209, Homo sapiens, UniProt Q9NNX6); binding, grating-coupled interferometry; Man(α1,2)Man-PEG3 chip; 2 h, no Tris): 4
Nc1nc2ccc(F)cc2[nH]1  Hill coefficient (HVCN1 (Homo sapiens, UniProt Q96D96, F150A); proton current, inhibitor, inside-out patch clamp): 1.27 ± 0.12
CC(C)NCCCC[C@@H]1NC(=O)[C@H](Cc2ccc(O)cc2)NC(=O)[C@H](Cc2ccccc2)NC(=O)CC[C@H](C(=O)N[C@@H](CCCCNC(C)C)C(=O)N[C@@H](CCCCNC(=O)[C@H](CCC(=O)O)NC(=O)[C@H](CCC(=O)O)NC(=O)[C@H](CCC(=O)O)NC(=O)CN2CCN(CC(=O)O)CCN(CC(=O)O)CC2)C(N)=O)NC(=O)CNC(=O)[C@H](Cc2ccc3ccccc3c2)NC(=O)[C@@H](CCCNC(=N)N)NC1=O [fluorine-18 labelled]  total cellular uptake (CXCR4; radioligand cell uptake; MM.1S cells; concentration not given): 2.46 ± 0.13%
O=c1cc(NCCc2ccc(Cl)cc2Cl)[nH]c(=O)[nH]1  inhibition (FFAR4; antagonist, β-arrestin recruitment; CHO cells; 10 µM, with: 4 µM TUG-891): 6 ± 6%
N#Cc1ccsc1NC(=O)COc1cccc(Cl)c1Cl  Emax (Kir3.1/Kir3.2; thallium flux, activator; HEK293; relative to: standard compound): < 10%
O=c1[nH]c(NCCCc2ccccc2)c(Br)c(=O)[nH]1  agonist effect (FFAR4; agonist, β-arrestin recruitment; CHO cells; 10 µM; relative to: 30 µM TUG-891): 0%
CC#CC(=O)Nc1cc2c(Nc3ccc(F)c(Cl)c3)ncnc2cn1  remaining activity (TRPM8; antagonist; HEK293; 5 µM; relative to: control): 96.2 ± 8.81%
Cc1cc(Nc2cc(N3CCN(C)CC3)nc(Sc3ccc(NC(=O)C4CC4)cc3)n2)[nH]n1  remaining activity (ROCK1 (Homo sapiens, UniProt Q13464); kinase activity, KinaseProfiler; 0.03 µM, species human; relative to: control): 122%
O=C(COc1cc(Cl)ccc1Cl)Nc1cc(C2CCC2)nn1C1CCC(F)(F)CC1  Emax (Kir3.1/Kir3.2; thallium flux, activator; HEK293; relative to: standard compound): < 10%
CCCCCCCNc1[nH]c(=O)[nH]c(=O)c1N=O  agonist effect (FFAR4; agonist, β-arrestin recruitment; CHO cells; 10 µM; relative to: 30 µM TUG-891): 0%
Nc1ccc(C(=O)O)cc1  current density (BEST1, with wild-type BEST1 (Homo sapiens, UniProt O76090, L234P); ion current, whole-cell patch clamp; HEK293 co-expressing mutant and wild-type; concentration not given, voltage -100 mV): -15.5 pA/pF and -8.52 pA/pF and -25.4 pA/pF and -51.5 pA/pF and -14.3 pA/pF and -21.3 pA/pF
Cc1cc2c(c(=O)[nH]1)C(=O)O/C2=C\c1cc(F)ccc1OC(C)C  ligand efficiency (PDE1C isoform PDE1C2; enzyme activity, inhibitor; with: 3H-cGMP substrate): 0.44
CC[C@@H]1[C@H](F)C(=O)N[C@@H]1COc1nccc2cc(C(N)=O)c(OC)cc12  inhibition (CAMK1D (Homo sapiens, UniProt Q8IU85); ATP-site probe binding, ActivX profiling; THP-1 cell lysate; 0.01 mM, Lys1 site): 7.8%
Cc1ccccc1C(=O)NCc1ccc(CNS(=O)(=O)c2ccccc2)cc1  EC (CXCR4; binding, inhibitor, competitive binding; MDA-MB-231; with: biotinylated TN14003): 1 nM
NCc1ccc(F)cc1  kcat of deuterated substrate (Maoa; substrate; pH 7.5, 25 °C): 0.02 ± 0.00167 s⁻¹
CCCCCCCCNc1cc(=O)n(C)c(=O)n1C  activation (FFAR4; agonist, β-arrestin recruitment; CHO cells; 10 µM): 1%
C=CC(=O)N1CCC(COCC(=O)N2CCN(c3nc(-c4cnc(N)nc4C(F)F)nc(N4CCOC[C@@H]4C)n3)CC2)CC1  remaining binding (MYLK4 (Homo sapiens, UniProt Q86YV6); KINOMEscan; 1 µM): 100%
CC(C)(C)CCNc1cc(=O)[nH]c(=O)[nH]1  activation (FFAR4; agonist, β-arrestin recruitment; CHO cells; 10 µM): 1%
CCC(=O)NS(=O)(=O)c1ccc(-c2c(-c3ccccc3)noc2C)cc1  activation (Nuclear receptor subfamily 4 group A member 2, LBD; with RXRα (Homo sapiens, UniProt P43354); reporter gene, full-length heterodimer DR5 reporter; 50 µM; relative to: vehicle): 0.52 fold
CC(=C/C(=O)O)/C=C/C=C(\C)C1C=C2C(C)(C)CCCC2(C)O1 (stereo not shown)  plasma membrane localization (Rhodopsin (RHO, Homo sapiens, UniProt P08100, T17M); immunostaining, refers to: opsin; COS-7 transfected; 30.00 µM, unit not given; relative to: surface over total stained cells): 0.96
NC(=O)NO  oxygen consumption rate (NADH dehydrogenase [ubiquinone] iron-sulfur protein 7, mitochondrial/NADH dehydrogenase [ubiquinone] iron-sulfur protein 2, mitochondrial/MT-ND1; complex I-dependent respiration, Seahorse XF96; HCT-116; 250 µM, 24 h; relative to: control): 91.3 ± 1.98%
CCS(=O)(=O)N1CC(CC#N)(n2cc(-c3ncnc4[nH]ccc34)cn2)C1  Förster distance (ORM1 (Homo sapiens, UniProt P02763); FRET): 2.3 nm
Oc1ccc(/C=C/c2cc(O)cc(O)c2)cc1  kon fold increase (O-methyltransferase (Sorghum bicolor, UniProt A0A1B6PFV1); biolayer interferometry; with: saturating SAH; relative to: apo protein): 1.15 fold
Cc1nc(CSc2nc(SCc3ccc(C(C)C)cc3)nc(=O)[nH]2)cs1  linear DNA (TOP2A (Homo sapiens, UniProt P11388); DNA cleavage; 125 µM, replicate 2): 3.67%
CCCCCCCNc1cc(=O)[nH]c(=O)[nH]1  activation (FFAR4; agonist, β-arrestin recruitment; CHO cells; 10 µM): 0%
O=C(O)CCc1c[nH]c2ccccc12  binding (Germin-like protein subfamily 3 member 1 (GLP1, Arabidopsis thaliana, UniProt P94040); microscale thermophoresis; Arabidopsis protoplast extract; concentration not given): no binding

A few entries again:
CC#CC(=O)Nc1cc2c(Nc3ccc(F)c(Cl)c3)ncnc2cn1  remaining activity (TRPM8; antagonist; HEK293; 5 µM; relative to: control): 96.2 ± 8.81%
NCc1ccc(F)cc1  kcat of deuterated substrate (Maoa; substrate; pH 7.5, 25 °C): 0.02 ± 0.00167 s⁻¹
O=c1cc(NCCc2ccc(Cl)cc2Cl)[nH]c(=O)[nH]1  inhibition (FFAR4; antagonist, β-arrestin recruitment; CHO cells; 10 µM, with: 4 µM TUG-891): 6 ± 6%
